# Measured values of several laboratories.
# Numbered parts are unrelated; each lists some results of a single study.
# Sequence of UniProt P11802 (whole entry, looked up): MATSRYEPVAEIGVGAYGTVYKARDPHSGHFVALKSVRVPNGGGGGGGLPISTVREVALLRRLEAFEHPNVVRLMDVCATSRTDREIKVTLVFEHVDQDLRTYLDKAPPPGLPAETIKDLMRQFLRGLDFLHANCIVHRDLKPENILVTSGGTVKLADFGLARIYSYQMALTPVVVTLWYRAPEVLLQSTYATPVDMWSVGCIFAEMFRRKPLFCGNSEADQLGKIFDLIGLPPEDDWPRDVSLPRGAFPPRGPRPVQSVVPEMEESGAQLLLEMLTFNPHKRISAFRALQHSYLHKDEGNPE
# Sequence of UniProt P42336 (whole entry, unmodified, looked up): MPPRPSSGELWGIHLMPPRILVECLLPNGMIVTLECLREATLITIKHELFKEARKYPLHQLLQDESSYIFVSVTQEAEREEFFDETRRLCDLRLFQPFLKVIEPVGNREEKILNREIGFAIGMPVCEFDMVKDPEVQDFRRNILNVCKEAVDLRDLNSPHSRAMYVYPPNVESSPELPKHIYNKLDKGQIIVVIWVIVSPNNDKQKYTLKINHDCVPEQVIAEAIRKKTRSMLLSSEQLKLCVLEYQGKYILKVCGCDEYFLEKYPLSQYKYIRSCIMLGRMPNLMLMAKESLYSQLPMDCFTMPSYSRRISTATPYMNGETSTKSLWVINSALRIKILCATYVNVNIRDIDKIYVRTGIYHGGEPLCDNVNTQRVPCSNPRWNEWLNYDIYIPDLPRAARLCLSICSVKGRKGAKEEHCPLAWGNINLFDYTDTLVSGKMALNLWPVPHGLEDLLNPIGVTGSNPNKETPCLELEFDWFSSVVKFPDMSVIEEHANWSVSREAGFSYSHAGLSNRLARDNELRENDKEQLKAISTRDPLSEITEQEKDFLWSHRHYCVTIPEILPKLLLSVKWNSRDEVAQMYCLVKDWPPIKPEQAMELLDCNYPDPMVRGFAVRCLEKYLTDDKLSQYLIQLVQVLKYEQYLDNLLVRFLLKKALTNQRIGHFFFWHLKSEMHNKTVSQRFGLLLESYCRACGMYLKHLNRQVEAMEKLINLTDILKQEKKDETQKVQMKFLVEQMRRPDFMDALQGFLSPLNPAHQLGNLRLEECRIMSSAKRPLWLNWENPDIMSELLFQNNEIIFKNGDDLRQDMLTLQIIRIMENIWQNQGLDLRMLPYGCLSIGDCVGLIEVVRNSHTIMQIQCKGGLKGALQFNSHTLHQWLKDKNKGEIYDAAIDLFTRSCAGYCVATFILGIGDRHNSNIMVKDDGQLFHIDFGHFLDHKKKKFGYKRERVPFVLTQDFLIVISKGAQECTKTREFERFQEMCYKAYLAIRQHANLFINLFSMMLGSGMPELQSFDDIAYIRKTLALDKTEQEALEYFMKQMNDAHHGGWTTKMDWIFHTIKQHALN
# Sequence of UniProt P23458 (whole entry, looked up): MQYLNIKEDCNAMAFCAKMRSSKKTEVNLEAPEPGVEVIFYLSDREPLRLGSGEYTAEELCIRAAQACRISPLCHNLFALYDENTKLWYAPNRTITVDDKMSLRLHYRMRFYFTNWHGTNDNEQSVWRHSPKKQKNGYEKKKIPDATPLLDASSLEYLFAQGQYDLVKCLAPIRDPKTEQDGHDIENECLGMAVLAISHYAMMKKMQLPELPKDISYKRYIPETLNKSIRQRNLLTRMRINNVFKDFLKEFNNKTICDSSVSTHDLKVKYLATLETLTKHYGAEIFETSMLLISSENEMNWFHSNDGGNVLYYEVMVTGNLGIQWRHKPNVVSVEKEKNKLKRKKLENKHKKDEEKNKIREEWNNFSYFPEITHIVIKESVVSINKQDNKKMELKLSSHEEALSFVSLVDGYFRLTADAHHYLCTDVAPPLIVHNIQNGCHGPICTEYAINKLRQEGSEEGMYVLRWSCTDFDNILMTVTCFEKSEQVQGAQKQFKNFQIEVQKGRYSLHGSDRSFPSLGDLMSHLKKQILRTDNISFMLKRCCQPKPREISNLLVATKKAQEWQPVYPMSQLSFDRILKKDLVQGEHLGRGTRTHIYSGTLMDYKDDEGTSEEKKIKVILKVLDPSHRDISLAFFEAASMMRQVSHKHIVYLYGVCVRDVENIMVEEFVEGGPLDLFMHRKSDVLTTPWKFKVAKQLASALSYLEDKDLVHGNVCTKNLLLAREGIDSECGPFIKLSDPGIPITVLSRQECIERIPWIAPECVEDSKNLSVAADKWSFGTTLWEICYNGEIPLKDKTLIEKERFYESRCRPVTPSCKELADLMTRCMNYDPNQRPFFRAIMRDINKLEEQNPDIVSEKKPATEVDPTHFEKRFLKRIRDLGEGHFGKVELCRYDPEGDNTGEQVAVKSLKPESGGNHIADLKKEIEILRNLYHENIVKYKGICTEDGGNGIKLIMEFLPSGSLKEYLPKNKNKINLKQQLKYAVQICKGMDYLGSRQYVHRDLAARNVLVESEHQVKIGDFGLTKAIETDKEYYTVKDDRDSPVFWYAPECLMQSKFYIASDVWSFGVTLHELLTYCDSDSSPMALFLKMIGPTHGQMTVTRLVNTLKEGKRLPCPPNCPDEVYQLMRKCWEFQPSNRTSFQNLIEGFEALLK
# Sequence of UniProt Q13705 (whole entry, looked up): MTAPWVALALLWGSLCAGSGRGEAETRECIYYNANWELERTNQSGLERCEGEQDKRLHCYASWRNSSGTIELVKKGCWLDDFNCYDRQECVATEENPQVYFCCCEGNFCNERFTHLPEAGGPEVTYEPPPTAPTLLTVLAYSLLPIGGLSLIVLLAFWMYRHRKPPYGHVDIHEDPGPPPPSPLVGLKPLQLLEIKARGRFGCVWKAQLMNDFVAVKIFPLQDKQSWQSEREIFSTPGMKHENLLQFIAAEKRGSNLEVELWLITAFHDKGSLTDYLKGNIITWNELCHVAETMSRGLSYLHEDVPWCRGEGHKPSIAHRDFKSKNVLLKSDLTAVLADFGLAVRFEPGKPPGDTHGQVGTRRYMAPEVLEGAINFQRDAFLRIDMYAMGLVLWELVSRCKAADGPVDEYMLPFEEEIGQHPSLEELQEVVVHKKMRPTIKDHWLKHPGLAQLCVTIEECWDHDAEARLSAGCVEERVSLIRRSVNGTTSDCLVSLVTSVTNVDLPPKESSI
# Sequence of UniProt Q99755 (whole entry, looked up): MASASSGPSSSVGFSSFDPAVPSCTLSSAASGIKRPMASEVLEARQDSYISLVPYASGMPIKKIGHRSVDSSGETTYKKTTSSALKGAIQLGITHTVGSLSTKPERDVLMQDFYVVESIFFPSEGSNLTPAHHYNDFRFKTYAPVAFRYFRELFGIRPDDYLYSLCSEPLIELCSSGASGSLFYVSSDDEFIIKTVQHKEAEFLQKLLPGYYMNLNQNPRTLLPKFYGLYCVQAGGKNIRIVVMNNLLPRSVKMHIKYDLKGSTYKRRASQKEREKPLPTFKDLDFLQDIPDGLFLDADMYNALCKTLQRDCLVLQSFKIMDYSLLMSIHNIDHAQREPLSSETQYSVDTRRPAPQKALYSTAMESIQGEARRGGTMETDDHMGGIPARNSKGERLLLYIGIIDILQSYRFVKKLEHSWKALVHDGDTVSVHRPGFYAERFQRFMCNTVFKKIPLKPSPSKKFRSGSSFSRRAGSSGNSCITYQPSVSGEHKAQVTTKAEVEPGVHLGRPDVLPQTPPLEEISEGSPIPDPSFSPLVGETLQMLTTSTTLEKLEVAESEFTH
# Sequence of UniProt P42338 (whole entry, looked up): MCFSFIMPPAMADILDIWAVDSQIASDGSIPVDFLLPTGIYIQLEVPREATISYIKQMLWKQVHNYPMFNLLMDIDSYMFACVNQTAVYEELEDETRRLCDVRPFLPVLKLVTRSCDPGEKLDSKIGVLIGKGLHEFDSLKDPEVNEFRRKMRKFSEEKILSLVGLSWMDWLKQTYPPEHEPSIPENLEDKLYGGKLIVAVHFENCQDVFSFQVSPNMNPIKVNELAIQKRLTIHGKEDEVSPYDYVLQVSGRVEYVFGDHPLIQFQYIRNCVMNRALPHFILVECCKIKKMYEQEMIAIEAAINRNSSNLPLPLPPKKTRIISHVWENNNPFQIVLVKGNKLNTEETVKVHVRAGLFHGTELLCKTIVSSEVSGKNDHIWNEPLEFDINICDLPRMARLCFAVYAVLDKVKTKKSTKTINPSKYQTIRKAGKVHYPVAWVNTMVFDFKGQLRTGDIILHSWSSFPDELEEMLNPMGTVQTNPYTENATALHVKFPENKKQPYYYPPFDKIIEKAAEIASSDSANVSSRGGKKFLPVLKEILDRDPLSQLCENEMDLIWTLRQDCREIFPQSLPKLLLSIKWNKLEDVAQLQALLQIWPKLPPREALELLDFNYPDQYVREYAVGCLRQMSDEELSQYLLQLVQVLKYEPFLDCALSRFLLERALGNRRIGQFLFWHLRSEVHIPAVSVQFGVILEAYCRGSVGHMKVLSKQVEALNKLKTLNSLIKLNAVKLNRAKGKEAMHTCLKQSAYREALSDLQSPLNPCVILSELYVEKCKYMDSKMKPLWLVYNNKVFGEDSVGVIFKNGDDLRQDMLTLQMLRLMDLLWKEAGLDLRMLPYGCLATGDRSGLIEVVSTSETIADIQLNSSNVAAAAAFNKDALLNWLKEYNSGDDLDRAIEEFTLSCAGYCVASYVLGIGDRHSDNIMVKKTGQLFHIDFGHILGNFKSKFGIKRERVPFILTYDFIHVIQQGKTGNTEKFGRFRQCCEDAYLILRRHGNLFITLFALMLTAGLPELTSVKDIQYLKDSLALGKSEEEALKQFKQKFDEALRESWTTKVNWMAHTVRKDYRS
# Sequence of UniProt Q6P2M8 (whole entry, looked up): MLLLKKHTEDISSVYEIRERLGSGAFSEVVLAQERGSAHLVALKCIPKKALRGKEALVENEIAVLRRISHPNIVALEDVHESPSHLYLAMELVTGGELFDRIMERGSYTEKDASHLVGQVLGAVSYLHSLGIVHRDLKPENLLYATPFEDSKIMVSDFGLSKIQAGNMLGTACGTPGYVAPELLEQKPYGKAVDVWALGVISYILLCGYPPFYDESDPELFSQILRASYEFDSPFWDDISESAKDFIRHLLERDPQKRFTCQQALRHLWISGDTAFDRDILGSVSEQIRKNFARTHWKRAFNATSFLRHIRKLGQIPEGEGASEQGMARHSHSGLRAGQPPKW

# Study 1
# Target: Serine/threonine-protein kinase Nek7 (NEK7, Homo sapiens, UniProt Q8TDX7)
# Observed: enzyme activity
# Action: inhibitor
# Tested at: 0.5 µM
# Relative to: control
# Target sequence (Q8TDX7 1-302): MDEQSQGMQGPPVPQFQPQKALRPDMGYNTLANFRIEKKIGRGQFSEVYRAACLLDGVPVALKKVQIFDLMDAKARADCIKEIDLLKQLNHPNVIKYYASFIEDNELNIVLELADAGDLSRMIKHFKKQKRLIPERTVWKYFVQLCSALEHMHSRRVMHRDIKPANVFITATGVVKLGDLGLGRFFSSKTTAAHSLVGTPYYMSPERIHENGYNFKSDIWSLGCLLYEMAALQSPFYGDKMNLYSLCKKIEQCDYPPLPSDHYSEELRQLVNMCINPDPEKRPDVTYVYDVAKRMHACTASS
Structure (SMILES),remaining activity
OCC(O)CCON=C1C(c2c(O)[nH]c3ccccc23)=Nc2ccccc21 (stereo not drawn),98.9%
COc1cc2ncnc(Nc3ccc(F)c(Cl)c3)c2cc1OCCCN1CCOCC1,96.9%
Cn1sc(=O)n(Cc2ccccc2)c1=O,101%
COc1ccc(OC)c2c(=S)c3ccccc3[nH]c12,97.2%
COc1ccc(CNC(=O)Nc2ncc([N+](=O)[O-])s2)cc1,99.4%
Cc1ccc(Nc2nccc(N(C)c3ccc4c(C)n(C)nc4c3)n2)cc1S(N)(=O)=O,101%
CCOC(=O)c1c(C)[nH]c(/C=C2\C(=O)Nc3ccccc32)c1C,102%
NCCNc1ncc(C(N)=O)c(Nc2cccc(C(F)(F)F)c2)n1,101%
O=C1NC(=O)C(c2cn(CCCO)c3ncccc23)=C1c1cnccn1,95.4%
Nc1ccc2ncnc(NCCc3ccc(Oc4ccccc4)cc3)c2c1,96%
N#CC(C#N)=C(N)/C(C#N)=C/c1ccc(O)cc1,98.9%
COc1cc2nccc(Oc3ccc(NC(=S)NC(=O)c4ccccc4C)cc3)c2cc1OC,106%
O=C(O)c1ccc2c3c1cccc3c(=O)n1c3ccccc3nc21,105%
CO[C@H]1C[C@@H]2CC[C@@H](C)[C@@](O)(O2)C(=O)C(=O)N2CCCC[C@H]2C(=O)O[C@H]([C@H](C)C[C@@H]2CC[C@@H](O)[C@H](OC)C2)CC(=O)[C@H](C)/C=C(\C)[C@@H](O)[C@@H](OC)C(=O)[C@H](C)C[C@H](C)/C=C/C=C/C=C/1C,104%
CNC(=O)c1cc(Oc2ccc(NC(=O)Nc3ccc(Cl)c(C(F)(F)F)c3)cc2)ccn1,98.2%
Cc1nc(-c2ccccc2)c(-c2ccncc2)o1,102%

# Study 2
# SMILES: O=C(NC[C@@H]1[C@H]2CN(C(=O)OCc3cc(C(F)(F)F)cc(C(F)(F)F)c3)C[C@@H]12)c1ccc2[nH]nnc2c1
# Observed: cell-free assay
# Technique: competition with immobilised ligand
# Tested at: 1 µM
target,remaining binding
"PI4KB (Homo sapiens, UniProt Q9UBF8)",100%
"BUB1 (Homo sapiens, UniProt O43683)",61%
"CSNK1G2 (Homo sapiens, UniProt P78368)",100%
"SRPK3 (Homo sapiens, UniProt Q9UPE1)",100%
"PIK3CA (Homo sapiens, UniProt P42336, E545A)",96%
"PRKACB (Homo sapiens, UniProt P22694)",100%
"TYRO3 (Homo sapiens, UniProt Q06418)",75%
"Tyrosine-protein kinase JAK1, JH2 (JAK1, Homo sapiens, UniProt P23458)",100%
"PIP5K1A (Homo sapiens, UniProt Q99755)",93%
"ACVR2B (Homo sapiens, UniProt Q13705)",100%
"PNCK (Homo sapiens, UniProt Q6P2M8)",100%
"PIK3CB (Homo sapiens, UniProt P42338)",100%
"CDK4 (Homo sapiens, UniProt P11802)",95%
"PAK5 (Homo sapiens, UniProt Q9P286)",100%
"PTK6 (Homo sapiens, UniProt Q13882)",96%
"PRKACA (Homo sapiens, UniProt P17612)",100%

# Study 3
# Target: Hepatocyte nuclear factor 3-beta, forkhead domain (FOXA2, Homo sapiens, UniProt Q9Y261, residues 142-269)
# Technique: protein-binding microarray
# Molecule type: double-stranded DNA, one strand shown
# Matrix: in vitro
# Tested at: not given
# Notes: k-mer, scored over probes, only values ≥0.25
# Reading: higher = stronger binding
# Construct (chain): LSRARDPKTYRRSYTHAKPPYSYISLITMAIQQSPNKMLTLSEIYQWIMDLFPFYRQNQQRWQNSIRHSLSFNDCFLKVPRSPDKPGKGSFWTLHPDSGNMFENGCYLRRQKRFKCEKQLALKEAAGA
Strand,E-score
ATAAACGA,0.344
AAGACATA,0.271
TAACAGAA,0.31
GTATCACA,0.299
AGGATATG,0.259
ACGTGTTG,0.27
TACAGACA,0.268
ATTGTCTA,0.309

# Study 4
# Target: Prothrombin, mature alpha-thrombin (F2, Homo sapiens, UniProt P00734)
# Technique: aptamer microarray, sandwich
# Molecule type: DNA with 2'F-ANA
# Matrix: in vitro
# Tested at: 200 nM
# Notes: whole 15-mer aptamer, many near background
# Together with: Cy3 exosite-II aptamer, 400 nM
# Reading: higher = stronger binding
# Strand: GGTTGGTGTGGTTGG
Modification,mean fluorescence intensity
2'F-ANA at 1 2 3 7 11 12 13 15,339 a.u.
2'F-ANA at 2 4 5 6 7 8 9 10 11 12 13,54.7 a.u.
2'F-ANA at 1 3 4 5 7 8 9 14 15,48.5 a.u.
2'F-ANA at 2 4 7 8 9 12 15,584 a.u.
2'F-ANA at 1 2 3 4 6 7 9 10 11,58.8 a.u.
2'F-ANA at 1 2 3 4 5 6 8 11 13 15,73.8 a.u.
2'F-ANA at 2 3 6 9 11 12 15,852 a.u.
2'F-ANA at 1 2 4 5 6 11 12 13 14,47.8 a.u.
